Experimental data gathered from unrelated publications.
Numbered parts are unrelated; each lists some results of a single study. Substitutions count along the parent as printed.

Block 1 — method: protein-binding microarray; form: double-stranded DNA, one strand shown; matrix: in vitro; tested at: 940 nM top; notes: 60-bp whole probe; with: salmon DNA 0.4 mg/ml; reference: random background probes; direction: higher = stronger binding; all sequences stand within: GCCTAGCAC … GTCTTGATTCGCTTGACGCTGCTG
Target: Interferon regulatory factor 5, full length, phosphomimetic (IRF5, Homo sapiens, UniProt Q13568-2, residues 1-514, S451D/S453D/S456D/S462D)
Sequence | fitted relative affinity [z-score]
TTAGAACGGGGGTTTCGATTAGTGCTA | 9.9
GACGGACTGGACACTGGGGATGTGCTA | -0.381
TGGCCTATTTATATGAGATGGTGCTAG | -0.179
CTTTACATGAGTTTAGAGCCGTGCTAG | -0.464
GACGGTTTCCCTATCCTGACGTGCTAG | 2.09
TTAGGTATCGGGTTACGGTTAGTGCTA | 6.83
GAGTGCTGGGATTACAGGCAGTGCTAG | -0.474
GTACATCTCTCTTAAATAGGGTGCTAG | 0.779
TTAGAACGGAGTATCGATTAGTGCTAG | 3.41
TTAGGACTGGTGACTGGGTTAGTGCTA | -0.473
GACGGTTCCCTTTTCGTGACGTGCTAG | 0.844

Block 2 — target: CCNB3, cyclin fold, Cln2 fusion (human); method: yeast growth competition, sequencing; matrix: yeast; notes: weak parent motif; reference: not given; direction: higher = stronger binding
Parent: GMNC docking peptide (human); KNAKRNLSSEFAN
Substitution | normalised enrichment score
KNAKRNLSSEPAN [F11P] | -0.176
KNAKRNLSSWFAN [E10W] | 0.691
KNAKHNLSSEFAN [R5H] | 0.125
KNAKRNLSFEFAN [S9F] | 0.491
KNAKRNYSSEFAN [L7Y] | 0.18
KNAKRLLSSEFAN [N6L] | -0.372
KNAKRNLSKEFAN [S9K] | 0.509
KNAKRNLSSLFAN [E10L] | -0.183
KNAKRNLVSEFAN [S8V] | 0.323
KNAKRALSSEFAN [N6A] | 0.0508
KGAKRNLSSEFAN [N2G] | 0.138
KNAKRNLSQEFAN [S9Q] | 0.0884

Block 3 — method: DHFR PCA, deep sequencing; matrix: yeast; with: (+)-ABA 1.4 µM; reference: wild-type fitted maximum; direction: higher = stronger binding
Target: ABI1, truncated, D143A, DHFR fusion (Arabidopsis thaliana)
Notes: methotrexate growth selection, single substitutions
Parent: PYL1, truncated, DHFR fusion (Arabidopsis thaliana); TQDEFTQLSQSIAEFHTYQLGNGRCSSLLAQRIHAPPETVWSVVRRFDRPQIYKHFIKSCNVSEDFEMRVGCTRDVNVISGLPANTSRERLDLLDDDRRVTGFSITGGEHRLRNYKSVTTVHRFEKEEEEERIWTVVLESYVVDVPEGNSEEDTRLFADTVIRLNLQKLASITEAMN; partner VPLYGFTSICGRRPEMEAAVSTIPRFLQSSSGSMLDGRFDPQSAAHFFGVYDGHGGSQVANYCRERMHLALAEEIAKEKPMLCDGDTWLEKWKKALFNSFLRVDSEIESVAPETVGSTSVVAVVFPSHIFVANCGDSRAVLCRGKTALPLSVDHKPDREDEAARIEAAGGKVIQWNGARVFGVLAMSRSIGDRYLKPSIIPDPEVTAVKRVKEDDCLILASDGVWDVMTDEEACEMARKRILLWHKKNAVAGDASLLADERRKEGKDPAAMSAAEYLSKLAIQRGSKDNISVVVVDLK
Substitution | relative binding score [%]
G71M | -7.36
F124D | 45
S26I | -13.9
Q19N | 50.9
E129W | 26.9
R24I | 26.3
E127D | 71.7
M68V | 39.8

Other studies, line by line
Substance | target | test | system | setting | how to read | quantity | result
PhoQ, residues 284 288 289 292 302 303 TNSAEL | PhoP, residues 12 14 15 18 19 LHSVQ (Escherichia coli, UniProt P23836) | Sort-seq, refers to: YFP reporter | E. coli | PhoQ-PhoP variant library, with: 10 µM Mg2+ | reference: high Mg2+ state, higher = stronger signaling | fold induction | 1.05

Repeated from above (block 2):
Substitution | normalised enrichment score
KNAKRNLSFEFAN [S9F] | 0.491
KNAKRNYSSEFAN [L7Y] | 0.18
KNAKRLLSSEFAN [N6L] | -0.372
KNAKRNLSKEFAN [S9K] | 0.509
KNAKRNLSSLFAN [E10L] | -0.183
